Measurements of several laboratories.
Numbered parts are unrelated; each lists some results of a single study.

Sample 1
Target: RING finger protein unkempt homolog, zinc fingers 1-6, GST-SBP tag (UNK, Homo sapiens, UniProt Q9C0B0, residues 30-357)
Sequence of UniProt Q9C0B0 (30-357, looked up): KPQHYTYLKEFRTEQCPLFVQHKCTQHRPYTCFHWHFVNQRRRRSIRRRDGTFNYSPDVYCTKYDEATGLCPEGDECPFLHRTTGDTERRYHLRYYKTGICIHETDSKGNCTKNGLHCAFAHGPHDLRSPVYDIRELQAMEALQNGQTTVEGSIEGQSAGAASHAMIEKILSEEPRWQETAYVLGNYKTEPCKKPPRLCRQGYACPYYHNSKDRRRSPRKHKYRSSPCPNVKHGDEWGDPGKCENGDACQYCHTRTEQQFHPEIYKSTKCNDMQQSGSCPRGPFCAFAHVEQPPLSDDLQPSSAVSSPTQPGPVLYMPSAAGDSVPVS
Technique: RNA Bind-n-Seq
Form: RNA
Sample: in vitro
Concentration: not given
Notes: RNA with constant flanks, human and mouse sites, ends assumed
Baseline: input RNA pool
Reading: higher = stronger binding
All sequences stand within: GGGAGUUCUACAGUCCGACGAUC … CAACAGAGGAUUGAGCAUCA
| Strand | bound/input enrichment [ratio] |
| --- | --- |
| AGAGAAGAGAUUCUGGCAUUUAUUAAGUCUUGCCAACAUGAAUGUGGUGGAAUAAGUGCUAGUAUCGGACAUGAUCCUCAUCUUUUAUACACUCUUAGUGCUGUCCAGAUUCUUACGCUG | 0.135 |
| CUCCCGGGGGGAGUCCAGGCCUUGGCUUUACCCAACGAAGAGGGUGCCACACCAUUAGACUUAGCUUUACGUGAAGGACACUCCAAGCUGGUGGAAGACGUCACAAAUUUUCAGGGCAGA | 0.622 |
| GAGACCCUGCGCAUGCACGCUGGCUCCCAGCUCACUAGGCUGUCACCCAGUCCUGUCAUUCUUAGACCAUUCAUCUGUCUGUCCAUUUUGCACGAAGAUUCCCCUCUCCUCCCCAACCCU | 1.1 |
| GGUGUUUUUUUUCUGGAUAUCACAUUUUCUUCAGAUUAUCCAUUUAAGCCACCAAAGGUUACUUUCCGUACCAGAAUCUAUCACUGCAACAUCAACAGUCAGGGAGUCAUCUGCCUGGAU | 0.188 |
| UUUCACUUUUUUUUUUAGUGGUUUAUAACACUCUGGUCUUCCCUUCAAAUCGUGUAUGCAAACAGGAACACAUUUAAUGUGACUCAACUGGAAACCGGUGCUCAGCAGUUAGGUGUAACA | 1.15 |
| GAACUCACAUCUCUAAAAGAAGCUACUCCUUCCCCAAUCAGUGAGUCUCAUAGUGAUGAGACCAUUCCCAGUGAUAGUGGAAUUGGAACAGAUAAUAACAGCACAUCAGACAGGGCAGAG | 0.312 |
| AAAAUGAAUUUAUGUAUAUAUCAGAUGUCCAAUACUGUAAUUAAUUUAUUAAAGACUGGCUCUCCAGUUUUAAAAUGGUUGUGUAAAGUUAUGUACUUCAGCAAGAAAAAAAUAAUAAUA | 0.826 |
| UUCCCAAAUCGUUUUUCCAAUCGCCCAAUAACUGGACCUCACAUCGCAUACACAGAGGCUGUUAGCGACACUCAGAUCAUGCUGAAAUGGACGUAUGUUCCAUCAAGUAACAAUAAUACU | 0.38 |

Sample 2
Target: Histone acetyltransferase KAT6A, winged helix 1, GST fusion (KAT6A, Homo sapiens, UniProt Q92794, residues 1-85)
Technique: protein binding microarray
Form: double-stranded DNA, one strand shown
Sample: in vitro
Concentration: not given
Notes: 8-mer, flanks averaged, mean of 2 arrays, mostly near background
Baseline: not given
Reading: higher = stronger binding
Residues (chain): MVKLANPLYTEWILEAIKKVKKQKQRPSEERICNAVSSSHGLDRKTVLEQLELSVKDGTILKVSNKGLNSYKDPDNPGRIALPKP
| Strand | E-score |
| --- | --- |
| GGGGCCCC | -0.0538 |
| TCTATGAA | -0.0748 |
| CAACATTA | -0.149 |
| ACGGCGCA | 0.42 |
| ATGCCAAA | -0.31 |
| TGCAGCAA | -0.224 |
| AGTTCGTG | -0.21 |
| AGGCCTGA | -0.222 |
| AATCTGCG | 0.111 |
| CGAGGCCG | 0.284 |
| TAACTCCA | -0.0975 |
| ACTGGTAG | -0.227 |
| AACGGCCT | 0.208 |
| GACCGTAA | 0.14 |
| ACCTTAAA | -0.0446 |
| ACGCCGAA | 0.211 |
| AATCGTGG | -0.155 |
| TATCGTGA | -0.104 |
| TACGGAAA | 0.218 |

Sample 3
Target: Ras GTPase-activating protein-binding protein 1, full length (G3BP1, Homo sapiens, UniProt Q13283)
Sequence of UniProt Q13283 (whole entry, looked up): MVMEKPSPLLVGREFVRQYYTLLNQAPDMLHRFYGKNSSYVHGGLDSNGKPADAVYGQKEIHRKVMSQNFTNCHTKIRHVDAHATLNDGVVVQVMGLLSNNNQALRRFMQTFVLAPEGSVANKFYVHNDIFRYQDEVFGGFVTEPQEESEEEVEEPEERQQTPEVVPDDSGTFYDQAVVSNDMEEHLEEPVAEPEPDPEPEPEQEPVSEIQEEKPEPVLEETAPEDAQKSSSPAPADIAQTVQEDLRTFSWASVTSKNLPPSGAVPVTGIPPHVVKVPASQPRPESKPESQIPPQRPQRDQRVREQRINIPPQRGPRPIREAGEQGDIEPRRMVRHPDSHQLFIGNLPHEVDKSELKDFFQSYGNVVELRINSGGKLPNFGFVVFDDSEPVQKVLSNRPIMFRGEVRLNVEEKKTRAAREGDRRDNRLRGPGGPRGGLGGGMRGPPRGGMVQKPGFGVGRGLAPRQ
Technique: RNA Bind-n-Seq
Form: RNA
Sample: in vitro
Concentration: 200 nM
Notes: whole 134-nt RNA, ends assumed
Added: 150 mM LiCl
Baseline: input library
Reading: higher = stronger binding
All molecules: 7-deaza-guanosine replaces G
All sequences stand within: GGGAGUUCUACAGUCCGACGAUC … UGGAAUUCUCGGGUGUCAAGG
| Strand | log2 enrichment |
| --- | --- |
| UCCUGUGCUACACAUCGUAUGUACCGAAUCGGUUUUUUGGGGUUUUUUGGGUUUUUUGGAAAGUAUUAUGUUACGCCGUUCGGAUCUGCA | 0.758 |
| GGCGGAGCAGCUGAUGGAGGAGUGGAACGAAGACCUAGACGGCAUGGAGGGUUUCGUGCUGGAGGGCAAGAAGUUUGCGCGGCUGCCGGA | -1.56 |
| CACAGACAACACGCACCCACACAGACAGAGAGGGAAGGGGUUGGGAUGGGGACAGGGUGCACAGCAGGGCGGGGUAGGACCCCAGCCCCU | 0.343 |
| UCAUUGCAUGAAAAGUGGAAAAGUUUAGAUCUAUGGAAACAGAACUGUUGCCUAUAUGGAAAAUCAGUGCCUUGUGGCAAUACAGGUAAG | -2.26 |
| UAACUUUAGAGGAGGAUCUGAUGGAUAUGUCAGUGGACGUGGAUUUGGGGAUGGCUAUAAUGGGUAUGGAGGAGGACCUGGAGGUGGCAA | 0.105 |
| UUCCUCAAGUCCUGUGCUACACAUCGUAUGUACCGAAUCGGAGGAGGGAGGAAAGUAUUAUGUUACGCCGUUCGGAUCUGCACUUCCAGC | -1.17 |
| CUCAAGUCCUGUGCUACACAUCGUAUGUACCGAAUCGGGAAAGGGUGGGAGGGAAAGUAUUAUGUUACGCCGUUCGGAUCUGCACUUCCA | 0.0917 |
| UGACUUUAGAGGAGGAUCUGAUGGAUAUGGCAGUGGACGUGGAUUUGGGGAUGGCUAUAAUGGGUAUGGAGGAGGACCUGGAGGUGGCAA | 0.123 |

Sample 4
Cell line: yeast with cyclin E2-Cln2 chimera
Observed: cell growth
Action: binder
Technique: competitive growth deep sequencing
Form: peptide
Concentration: concentration not given
Notes: peptide tiling library
Reading: direction not given
| Sequence | growth enrichment score |
| --- | --- |
| SPPRGRRLFPPGPAGF | -0.744 |
| RQVRRDLFAF | 0.9 |
| NEGVSNAVRRSLYIRD | -0.232 |
| KVKRRLDLDIDGLQKE | 1.35 |
| DSGFCLDSPGPLDSKE | -0.0902 |
| GFGFLLFICKLTF | 0.226 |
| NSMKELNFSHLPSNSV | 0.266 |

For quick reference, copied from above (sample 4):
| Sequence | growth enrichment score |
| --- | --- |
| SPPRGRRLFPPGPAGF | -0.744 |
| RQVRRDLFAF | 0.9 |
| NEGVSNAVRRSLYIRD | -0.232 |
